Measured values collected from several papers.
Protocols differ between the studies behind these lines. ± gives the spread as reported.
CSNK1E: Casein kinase I isoform epsilon (CSNK1E, Homo sapiens, UniProt P49674)
Sequence of UniProt P49674 (whole entry, looked up): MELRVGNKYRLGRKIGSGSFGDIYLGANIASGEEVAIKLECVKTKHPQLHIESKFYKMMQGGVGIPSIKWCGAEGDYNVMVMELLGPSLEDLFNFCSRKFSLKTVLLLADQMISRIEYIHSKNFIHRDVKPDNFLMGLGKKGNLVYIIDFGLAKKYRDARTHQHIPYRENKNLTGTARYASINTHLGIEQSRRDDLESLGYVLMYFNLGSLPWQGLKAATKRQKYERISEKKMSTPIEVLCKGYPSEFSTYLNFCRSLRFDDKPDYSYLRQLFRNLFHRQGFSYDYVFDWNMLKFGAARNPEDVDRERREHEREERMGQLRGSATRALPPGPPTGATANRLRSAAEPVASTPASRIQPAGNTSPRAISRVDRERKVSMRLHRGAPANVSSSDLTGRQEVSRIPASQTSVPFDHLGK
NTRK2: BDNF/NT-3 growth factors receptor (NTRK2, Homo sapiens, UniProt Q16620)
Sequence of UniProt Q16620 (whole entry, looked up): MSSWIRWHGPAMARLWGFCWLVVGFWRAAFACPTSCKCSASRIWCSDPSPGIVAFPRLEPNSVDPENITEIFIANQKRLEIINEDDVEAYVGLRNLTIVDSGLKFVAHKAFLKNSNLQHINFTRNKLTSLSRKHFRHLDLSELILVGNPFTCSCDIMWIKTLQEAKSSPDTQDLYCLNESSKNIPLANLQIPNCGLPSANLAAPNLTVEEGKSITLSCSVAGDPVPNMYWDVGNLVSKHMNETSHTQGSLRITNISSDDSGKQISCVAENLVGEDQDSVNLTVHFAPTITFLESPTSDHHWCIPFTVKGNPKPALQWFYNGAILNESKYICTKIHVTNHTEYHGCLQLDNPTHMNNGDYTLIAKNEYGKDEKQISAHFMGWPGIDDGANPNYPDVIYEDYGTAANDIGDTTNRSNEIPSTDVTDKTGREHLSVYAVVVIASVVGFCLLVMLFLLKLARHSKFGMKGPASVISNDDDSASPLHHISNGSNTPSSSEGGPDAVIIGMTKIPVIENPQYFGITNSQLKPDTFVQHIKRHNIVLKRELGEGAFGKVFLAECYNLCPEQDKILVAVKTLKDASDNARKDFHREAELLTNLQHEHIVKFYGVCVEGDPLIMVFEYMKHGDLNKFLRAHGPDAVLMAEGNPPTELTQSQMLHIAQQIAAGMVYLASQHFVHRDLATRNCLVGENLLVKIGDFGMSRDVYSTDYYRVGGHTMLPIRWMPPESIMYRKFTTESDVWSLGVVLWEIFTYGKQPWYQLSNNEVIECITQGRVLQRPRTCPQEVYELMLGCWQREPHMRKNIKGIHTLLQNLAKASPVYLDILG
Sequence of UniProt P05164 (whole entry, looked up): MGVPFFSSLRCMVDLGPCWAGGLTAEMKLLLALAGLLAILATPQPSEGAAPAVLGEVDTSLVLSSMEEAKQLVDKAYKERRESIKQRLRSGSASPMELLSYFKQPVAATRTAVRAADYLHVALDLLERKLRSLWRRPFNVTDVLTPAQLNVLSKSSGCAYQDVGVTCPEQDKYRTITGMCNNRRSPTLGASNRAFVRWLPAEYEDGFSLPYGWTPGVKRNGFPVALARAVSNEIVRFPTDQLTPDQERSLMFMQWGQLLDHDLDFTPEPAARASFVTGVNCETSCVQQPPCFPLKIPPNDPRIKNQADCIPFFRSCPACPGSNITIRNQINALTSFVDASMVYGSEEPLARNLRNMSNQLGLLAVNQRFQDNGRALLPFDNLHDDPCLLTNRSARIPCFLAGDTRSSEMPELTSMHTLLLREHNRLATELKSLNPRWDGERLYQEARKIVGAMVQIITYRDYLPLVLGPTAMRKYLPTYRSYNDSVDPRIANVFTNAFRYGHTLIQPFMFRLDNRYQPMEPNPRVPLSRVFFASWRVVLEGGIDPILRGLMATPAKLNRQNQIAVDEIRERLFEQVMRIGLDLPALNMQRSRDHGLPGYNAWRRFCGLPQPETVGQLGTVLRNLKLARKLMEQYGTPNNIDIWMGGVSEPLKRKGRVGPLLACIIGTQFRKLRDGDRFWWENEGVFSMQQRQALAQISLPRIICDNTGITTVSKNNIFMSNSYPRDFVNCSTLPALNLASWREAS
Sequence of UniProt P45983 (whole entry, looked up): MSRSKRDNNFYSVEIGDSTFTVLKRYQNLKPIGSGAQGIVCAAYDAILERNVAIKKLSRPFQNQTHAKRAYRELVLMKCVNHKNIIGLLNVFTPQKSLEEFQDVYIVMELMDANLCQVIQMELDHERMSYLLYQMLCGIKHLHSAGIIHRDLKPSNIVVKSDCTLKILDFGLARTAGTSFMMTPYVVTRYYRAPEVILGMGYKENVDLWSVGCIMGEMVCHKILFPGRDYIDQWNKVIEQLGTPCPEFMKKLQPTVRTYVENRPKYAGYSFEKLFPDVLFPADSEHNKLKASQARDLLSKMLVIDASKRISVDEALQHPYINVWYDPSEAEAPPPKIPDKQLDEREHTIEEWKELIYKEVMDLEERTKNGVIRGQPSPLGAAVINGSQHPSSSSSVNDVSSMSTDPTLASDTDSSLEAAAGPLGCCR
Sequence of UniProt P07711 (whole entry, looked up): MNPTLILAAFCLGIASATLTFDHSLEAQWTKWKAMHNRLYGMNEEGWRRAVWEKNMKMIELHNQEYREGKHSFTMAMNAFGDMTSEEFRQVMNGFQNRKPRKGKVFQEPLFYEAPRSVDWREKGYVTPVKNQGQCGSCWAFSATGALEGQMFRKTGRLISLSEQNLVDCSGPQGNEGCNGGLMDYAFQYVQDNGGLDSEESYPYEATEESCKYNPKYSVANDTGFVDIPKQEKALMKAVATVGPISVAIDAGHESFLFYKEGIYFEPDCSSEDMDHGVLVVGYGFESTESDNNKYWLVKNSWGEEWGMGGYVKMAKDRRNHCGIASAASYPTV
Sequence of UniProt P0C1S8 (whole entry, looked up): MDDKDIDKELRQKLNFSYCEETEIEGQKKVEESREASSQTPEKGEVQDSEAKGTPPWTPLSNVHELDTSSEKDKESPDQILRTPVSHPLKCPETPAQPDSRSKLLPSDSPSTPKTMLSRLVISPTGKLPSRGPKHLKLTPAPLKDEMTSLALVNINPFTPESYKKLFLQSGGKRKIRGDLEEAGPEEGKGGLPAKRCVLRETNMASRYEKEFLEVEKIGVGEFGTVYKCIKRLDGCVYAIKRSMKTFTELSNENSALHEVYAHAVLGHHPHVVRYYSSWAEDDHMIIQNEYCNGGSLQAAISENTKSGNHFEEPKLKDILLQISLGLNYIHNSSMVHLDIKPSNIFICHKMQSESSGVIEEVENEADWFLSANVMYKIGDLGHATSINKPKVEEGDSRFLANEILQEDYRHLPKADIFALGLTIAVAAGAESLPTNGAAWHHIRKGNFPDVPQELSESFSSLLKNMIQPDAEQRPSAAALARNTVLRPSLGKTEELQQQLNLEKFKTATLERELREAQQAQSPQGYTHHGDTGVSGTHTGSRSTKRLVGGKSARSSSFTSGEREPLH
Sequence of UniProt O75676 (whole entry, looked up): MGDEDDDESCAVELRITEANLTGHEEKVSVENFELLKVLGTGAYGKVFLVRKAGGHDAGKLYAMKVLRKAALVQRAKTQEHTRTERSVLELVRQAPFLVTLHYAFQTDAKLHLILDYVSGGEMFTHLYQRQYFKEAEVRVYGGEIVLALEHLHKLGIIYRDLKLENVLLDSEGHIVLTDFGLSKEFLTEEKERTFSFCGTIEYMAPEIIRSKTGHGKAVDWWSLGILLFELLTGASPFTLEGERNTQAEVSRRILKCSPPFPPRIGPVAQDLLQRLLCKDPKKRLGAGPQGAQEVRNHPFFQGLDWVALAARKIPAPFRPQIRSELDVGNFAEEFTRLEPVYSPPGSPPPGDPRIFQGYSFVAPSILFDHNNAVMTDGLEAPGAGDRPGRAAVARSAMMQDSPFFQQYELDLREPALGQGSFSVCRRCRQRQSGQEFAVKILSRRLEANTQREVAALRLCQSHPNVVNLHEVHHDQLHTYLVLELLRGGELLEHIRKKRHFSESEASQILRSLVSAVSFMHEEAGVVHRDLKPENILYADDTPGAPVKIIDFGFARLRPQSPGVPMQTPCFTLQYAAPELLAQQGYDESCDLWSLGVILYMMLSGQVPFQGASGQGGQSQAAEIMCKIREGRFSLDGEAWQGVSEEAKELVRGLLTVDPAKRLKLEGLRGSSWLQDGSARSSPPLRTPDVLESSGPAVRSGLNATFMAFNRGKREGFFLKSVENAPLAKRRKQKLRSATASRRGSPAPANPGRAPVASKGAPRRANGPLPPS
Sequence of UniProt Q9BZL6 (whole entry, looked up): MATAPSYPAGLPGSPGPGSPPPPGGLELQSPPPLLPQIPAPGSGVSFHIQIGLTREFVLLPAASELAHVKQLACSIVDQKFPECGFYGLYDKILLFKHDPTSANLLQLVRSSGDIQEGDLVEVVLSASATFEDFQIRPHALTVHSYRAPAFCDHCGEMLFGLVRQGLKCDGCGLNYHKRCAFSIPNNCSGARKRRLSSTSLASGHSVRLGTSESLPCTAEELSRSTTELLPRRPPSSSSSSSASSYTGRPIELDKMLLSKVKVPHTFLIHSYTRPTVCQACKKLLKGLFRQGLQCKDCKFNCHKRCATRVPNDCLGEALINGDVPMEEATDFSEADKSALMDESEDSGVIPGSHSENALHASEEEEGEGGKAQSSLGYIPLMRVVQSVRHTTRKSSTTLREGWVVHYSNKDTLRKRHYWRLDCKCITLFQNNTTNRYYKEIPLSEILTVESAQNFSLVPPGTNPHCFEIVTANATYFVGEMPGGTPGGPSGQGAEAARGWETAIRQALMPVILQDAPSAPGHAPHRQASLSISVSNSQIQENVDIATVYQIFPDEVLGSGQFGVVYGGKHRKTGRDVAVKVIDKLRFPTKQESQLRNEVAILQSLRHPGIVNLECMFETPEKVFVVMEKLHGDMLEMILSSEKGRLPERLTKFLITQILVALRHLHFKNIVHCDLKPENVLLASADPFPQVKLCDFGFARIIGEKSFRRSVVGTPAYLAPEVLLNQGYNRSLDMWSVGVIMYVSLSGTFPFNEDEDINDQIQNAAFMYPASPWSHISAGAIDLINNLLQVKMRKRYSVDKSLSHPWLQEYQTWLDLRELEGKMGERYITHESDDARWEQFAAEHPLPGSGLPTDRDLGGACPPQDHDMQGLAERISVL

`CNc1ncc2c(/C=C/C(=O)N3CCC(OC)CC3)nn(Cc3cccc(C(F)(F)F)c3)c2n1` gave a remaining activity of 105% (EIF2AK1 (Homo sapiens, UniProt Q9BQI3); kinase activity, inhibitor; 1 µM; baseline: untreated control).
For `C=CC(=O)N1CCC[C@@H](n2nc(-c3ccc(Oc4ccccc4)cc3)c3c(N)ncnc32)C1`, the remaining activity was 73.2% (Cyclin-dependent kinase 5, with p25 (CDK5, Homo sapiens, UniProt Q00535); kinase activity, inhibitor, HotSpot radiometric; 100 nM, with: ATP 10 µM).
`COc1cc(N2CCN(C)CC2)ccc1Nc1nc(N)n(C(=S)NCc2c(Cl)cccc2Cl)n1` gave a remaining activity of 0.15% (SBK1 (Homo sapiens, UniProt Q52WX2); enzyme activity; 10 µM; baseline: control).
`C=CC[C@@H]1c2ccc(OC)c(OC)c2CN2CCc3cc4c(cc3[C@H]12)OCO4` has a remaining activity of 50.5% (P2X purinoceptor 7 (P2RX7, Homo sapiens, UniProt Q99572); ATP-evoked current, inhibitor, whole-cell patch clamp; HEK293 transfected; 0.3 µM).
`C1=C/COCc2cc(ccc2OCCN2CCCC2)Nc2nccc(n2)-c2cccc(c2)COC/1` has a remaining activity of 15% (EGFR (Homo sapiens, UniProt P00533, L858R/T790M); concentration not given; baseline: untreated control).
`Cc1ccc(C[C@H](NC(=O)OC(C)(C)C)C(=O)NC/C=C/S(=O)(=O)c2ccccc2)cc1` has a remaining activity of 6% (Procathepsin L (CTSL, Homo sapiens, UniProt P07711); inhibitor; 5 µM, 60 min, with: Z-Phe-Arg-pNA; baseline: uninhibited control).
The remaining activity of `COc1ccc(F)cc1C(=O)NCc1ccc(-c2nn([C@@H](C)C(F)(F)F)c(N)c2C(N)=O)cc1` is reported as 68.4 ± 0.3% (CSNK1E; kinase activity, inhibitor, HotSpot radiometric; 1000 nM, with: ATP at Km).
`CC(C)Oc1cc(N2CCN(C)CC2)ccc1Nc1nc(N)n(C(=O)NCc2ccccc2S(=O)(=O)C(C)C)n1` gave a remaining activity of 14% (Ribosomal protein S6 kinase alpha-4, C-terminal kinase domain (RPS6KA4, Homo sapiens, UniProt O75676); enzyme activity; 10 µM; baseline: control).
`C=CC(=O)N1CCC([C@@H]2CCNc3c(C(N)=O)c(-c4ccc(Oc5ccccc5)cc4)nn32)CC1` has a remaining activity of 108 ± 1.1% (CSNK1E; kinase activity, inhibitor, HotSpot radiometric; 100 nM, with: ATP 10 µM).
`O=C(NC1CCC1)c1ccc2nc(-c3cccc(NS(=O)(=O)NCCN4CCCCC4)c3)cn2c1` has a remaining activity of 100% (WEE2 (Homo sapiens, UniProt P0C1S8); enzyme activity; 10 µM).
The remaining activity of `O=C(O)c1ccc(Nc2ncc3c(n2)-c2ccc(Cl)cc2C(c2c(F)cccc2F)=NC3)cc1` is reported as 94% (Ron(h); kinase activity; 1 µM).
With `C=CC(=O)N1CCC[C@@H](n2nc(-c3ccc(Oc4ccccc4)cc3)c3c(N)ncnc32)C1` the remaining activity was 177% (NTRK2; 1 µM).
`COc1cc(Nc2ncc3c(n2)-c2ccc(Cl)cc2C(c2c(F)cccc2OC)=NC3)ccc1C(=O)O` has a remaining activity of 88% (CAMK4; kinase activity; 1 µM).
With `COc1cc(-c2cncc3c2CN(C)Cc2cc(N4CCNCC4)ccc2-3)cc(OC)c1OC` the remaining activity was 108% (MAP3K3 (Homo sapiens, UniProt Q99759); kinase activity; 1 µM, human enzyme, with: ATP 10 µM; baseline: DMSO control).
`COc1cc(F)ccc1-c1ncnc(Nc2cccc(C[S@](C)(=N)=O)c2)n1` gave a remaining activity of 102% (PRKD2 (Homo sapiens, UniProt Q9BZL6); kinase activity; 10 µM, with: 10 µM ATP).
The remaining activity of `NC/C(=C\F)COc1cccc(Cn2c(=S)[nH]c(=O)c3[nH]cnc32)c1` is reported as 20.6% (Myeloperoxidase (MPO, Homo sapiens, UniProt P05164); LDL lipid peroxidation, inhibitor, refers to: cholesteryl ester hydroperoxide; 0.0556 µM; baseline: control).
With `CC(C)(C)c1nc(-c2cccc(NS(=O)(=O)c3c(F)cccc3F)c2F)c(-c2ccnc(N)n2)s1` the remaining activity was 76% (Mitogen-activated protein kinase kinase kinase 7, with TAB1 (MAP3K7, Homo sapiens, UniProt O43318); kinase activity, radiometric 33PanQinase; 1 µM; baseline: DMSO).
`Cc1cc(NC(=O)c2cccc(NC(=O)/C=C/CN(C)C)c2)ccc1Nc1nccc(-c2cccnc2)n1` has a remaining activity of 1.05 (MAPK8 (Homo sapiens, UniProt P45983); enzyme activity, inhibitor; 8.36e-05 µM, 6 h, unit not given, with: GSH 10 mM pre-incubation; baseline: vehicle).
`Cc1cc(Nc2cc(N3CCN(C)CC3)nc(Sc3ccc(NC(=O)C4CC4)cc3)n2)[nH]n1` gave a remaining activity of 82% (NTRK2; kinase activity, KinaseProfiler; 0.03 µM, species human; baseline: control).
